Measurements gathered from unrelated publications.
Parts stem from different laboratories: compare values within a part only. Substitutions count along the parent as printed.
Chain of UniProt P07948 (whole entry, looked up): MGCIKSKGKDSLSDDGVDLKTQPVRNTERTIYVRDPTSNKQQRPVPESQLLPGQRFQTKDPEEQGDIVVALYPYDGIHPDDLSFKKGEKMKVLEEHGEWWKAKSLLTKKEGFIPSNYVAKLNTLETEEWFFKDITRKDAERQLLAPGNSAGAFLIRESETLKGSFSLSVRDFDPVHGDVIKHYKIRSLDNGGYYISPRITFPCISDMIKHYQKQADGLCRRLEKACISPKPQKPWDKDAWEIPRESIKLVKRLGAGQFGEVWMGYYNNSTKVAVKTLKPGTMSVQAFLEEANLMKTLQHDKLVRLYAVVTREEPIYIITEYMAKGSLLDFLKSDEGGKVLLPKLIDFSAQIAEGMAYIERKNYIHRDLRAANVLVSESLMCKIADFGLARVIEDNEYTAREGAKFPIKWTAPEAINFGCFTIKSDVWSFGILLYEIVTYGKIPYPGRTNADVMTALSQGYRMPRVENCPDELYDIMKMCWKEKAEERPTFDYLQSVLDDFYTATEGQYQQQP
Chain of UniProt P11802 (whole entry, looked up): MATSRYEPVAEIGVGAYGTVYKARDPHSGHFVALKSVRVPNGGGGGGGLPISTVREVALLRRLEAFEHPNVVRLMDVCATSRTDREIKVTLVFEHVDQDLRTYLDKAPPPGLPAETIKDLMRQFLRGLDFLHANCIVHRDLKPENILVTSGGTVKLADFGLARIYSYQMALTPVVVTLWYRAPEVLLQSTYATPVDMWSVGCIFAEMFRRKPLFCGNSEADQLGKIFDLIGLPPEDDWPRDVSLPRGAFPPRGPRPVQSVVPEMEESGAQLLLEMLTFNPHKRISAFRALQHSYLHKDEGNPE
Chain of UniProt P54760 (whole entry, looked up): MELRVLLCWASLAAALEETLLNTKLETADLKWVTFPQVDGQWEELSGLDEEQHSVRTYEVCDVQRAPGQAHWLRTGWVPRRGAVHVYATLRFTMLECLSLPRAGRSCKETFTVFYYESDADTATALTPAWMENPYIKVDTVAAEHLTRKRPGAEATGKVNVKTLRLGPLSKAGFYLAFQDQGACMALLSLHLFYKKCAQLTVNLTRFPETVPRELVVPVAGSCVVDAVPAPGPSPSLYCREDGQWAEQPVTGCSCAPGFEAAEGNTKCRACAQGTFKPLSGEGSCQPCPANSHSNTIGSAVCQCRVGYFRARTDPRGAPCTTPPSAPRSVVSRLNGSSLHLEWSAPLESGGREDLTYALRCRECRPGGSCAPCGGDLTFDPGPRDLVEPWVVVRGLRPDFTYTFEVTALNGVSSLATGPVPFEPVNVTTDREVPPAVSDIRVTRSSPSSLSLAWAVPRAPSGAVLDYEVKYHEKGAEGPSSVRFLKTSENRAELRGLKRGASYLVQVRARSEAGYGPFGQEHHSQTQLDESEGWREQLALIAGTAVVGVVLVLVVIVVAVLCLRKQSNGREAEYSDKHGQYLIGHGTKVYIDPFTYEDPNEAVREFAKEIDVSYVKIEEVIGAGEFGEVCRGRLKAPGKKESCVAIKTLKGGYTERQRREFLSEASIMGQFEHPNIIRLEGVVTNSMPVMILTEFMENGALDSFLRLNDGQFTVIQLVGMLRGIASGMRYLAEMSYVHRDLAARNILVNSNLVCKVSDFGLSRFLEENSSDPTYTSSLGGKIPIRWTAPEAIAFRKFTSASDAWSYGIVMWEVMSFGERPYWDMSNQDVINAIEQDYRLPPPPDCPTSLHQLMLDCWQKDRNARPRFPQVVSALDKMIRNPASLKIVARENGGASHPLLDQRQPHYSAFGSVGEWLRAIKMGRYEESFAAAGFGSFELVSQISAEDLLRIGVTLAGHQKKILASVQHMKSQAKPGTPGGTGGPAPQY
Chain of UniProt Q13557 (whole entry, looked up): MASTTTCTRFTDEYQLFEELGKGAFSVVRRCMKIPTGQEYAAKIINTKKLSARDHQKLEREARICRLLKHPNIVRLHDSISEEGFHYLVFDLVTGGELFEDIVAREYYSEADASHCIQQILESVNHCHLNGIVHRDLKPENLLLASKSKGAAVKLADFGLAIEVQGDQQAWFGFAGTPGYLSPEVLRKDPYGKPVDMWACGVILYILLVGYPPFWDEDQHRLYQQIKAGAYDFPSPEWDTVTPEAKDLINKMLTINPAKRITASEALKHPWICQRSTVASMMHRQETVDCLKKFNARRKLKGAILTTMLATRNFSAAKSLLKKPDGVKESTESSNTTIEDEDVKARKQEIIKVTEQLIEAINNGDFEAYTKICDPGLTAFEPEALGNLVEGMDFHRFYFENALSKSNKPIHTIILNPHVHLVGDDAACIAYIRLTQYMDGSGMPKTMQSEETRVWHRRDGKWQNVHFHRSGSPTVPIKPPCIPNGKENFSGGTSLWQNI
Chain of UniProt P04629 (whole entry, looked up): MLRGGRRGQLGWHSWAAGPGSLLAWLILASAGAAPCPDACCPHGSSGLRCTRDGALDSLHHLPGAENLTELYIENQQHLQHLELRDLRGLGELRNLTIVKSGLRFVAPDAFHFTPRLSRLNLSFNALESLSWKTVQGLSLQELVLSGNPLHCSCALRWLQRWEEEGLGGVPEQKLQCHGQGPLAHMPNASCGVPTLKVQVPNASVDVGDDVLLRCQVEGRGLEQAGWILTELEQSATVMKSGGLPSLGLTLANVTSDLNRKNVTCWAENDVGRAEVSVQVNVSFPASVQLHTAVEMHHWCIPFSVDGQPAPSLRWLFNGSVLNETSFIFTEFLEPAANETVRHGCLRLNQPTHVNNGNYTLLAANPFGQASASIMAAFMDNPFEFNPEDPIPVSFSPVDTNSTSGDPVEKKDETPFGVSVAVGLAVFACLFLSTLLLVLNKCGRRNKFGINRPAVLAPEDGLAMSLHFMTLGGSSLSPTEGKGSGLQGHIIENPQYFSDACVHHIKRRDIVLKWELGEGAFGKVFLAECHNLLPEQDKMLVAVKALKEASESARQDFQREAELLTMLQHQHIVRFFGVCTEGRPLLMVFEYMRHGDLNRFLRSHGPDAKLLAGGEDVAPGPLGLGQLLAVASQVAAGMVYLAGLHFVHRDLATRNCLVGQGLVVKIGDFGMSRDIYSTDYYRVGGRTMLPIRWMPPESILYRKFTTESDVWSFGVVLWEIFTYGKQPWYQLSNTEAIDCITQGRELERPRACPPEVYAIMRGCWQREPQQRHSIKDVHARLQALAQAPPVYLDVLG
Chain of UniProt P36897 (whole entry, looked up): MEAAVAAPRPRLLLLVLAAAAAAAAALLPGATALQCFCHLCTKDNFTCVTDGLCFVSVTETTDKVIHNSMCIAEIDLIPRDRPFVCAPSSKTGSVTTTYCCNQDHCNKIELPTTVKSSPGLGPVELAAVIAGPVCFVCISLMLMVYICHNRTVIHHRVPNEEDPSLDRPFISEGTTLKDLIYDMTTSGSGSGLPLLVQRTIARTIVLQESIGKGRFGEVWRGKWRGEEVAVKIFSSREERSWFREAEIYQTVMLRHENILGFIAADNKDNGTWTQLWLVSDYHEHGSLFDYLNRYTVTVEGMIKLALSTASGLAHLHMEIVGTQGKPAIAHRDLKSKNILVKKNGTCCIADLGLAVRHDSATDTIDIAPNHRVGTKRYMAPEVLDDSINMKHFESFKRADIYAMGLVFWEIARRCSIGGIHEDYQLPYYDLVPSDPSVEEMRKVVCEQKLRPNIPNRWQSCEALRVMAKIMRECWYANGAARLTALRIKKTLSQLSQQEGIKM
Chain of UniProt P51955 (whole entry, looked up): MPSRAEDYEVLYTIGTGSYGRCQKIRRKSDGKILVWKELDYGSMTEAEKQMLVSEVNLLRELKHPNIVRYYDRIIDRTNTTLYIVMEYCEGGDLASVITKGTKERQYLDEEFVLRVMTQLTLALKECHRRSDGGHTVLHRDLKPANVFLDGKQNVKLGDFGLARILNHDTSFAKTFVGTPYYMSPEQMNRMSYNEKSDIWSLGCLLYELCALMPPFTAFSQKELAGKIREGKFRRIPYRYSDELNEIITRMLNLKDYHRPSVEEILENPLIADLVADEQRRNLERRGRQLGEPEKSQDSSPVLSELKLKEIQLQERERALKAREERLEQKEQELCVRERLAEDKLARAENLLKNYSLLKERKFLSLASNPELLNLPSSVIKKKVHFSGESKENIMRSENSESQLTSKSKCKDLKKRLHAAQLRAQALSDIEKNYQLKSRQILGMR
Chain of UniProt Q00535 (whole entry, looked up): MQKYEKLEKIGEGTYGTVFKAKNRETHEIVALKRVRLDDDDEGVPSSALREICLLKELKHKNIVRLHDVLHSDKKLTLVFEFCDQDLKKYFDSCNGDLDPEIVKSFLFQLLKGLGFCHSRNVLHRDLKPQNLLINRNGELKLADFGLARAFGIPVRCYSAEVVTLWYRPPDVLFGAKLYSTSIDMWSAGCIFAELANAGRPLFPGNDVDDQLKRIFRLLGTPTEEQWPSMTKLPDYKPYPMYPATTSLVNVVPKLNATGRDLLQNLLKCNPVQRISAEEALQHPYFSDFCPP

Block 1 — SMILES: CC(C)N(CCC(=O)c1ccc2ccccc2c1)Cc1ccccc1; read-out: enzyme activity; action: inhibitor; tested at: 0.5 µM; relative to: control
For TGFBR1 (Homo sapiens, UniProt P36897): remaining activity read 92.5%.
For Protein kinase C beta type, isoform beta-I (PRKCB, Homo sapiens, UniProt P05771): remaining activity read 92.6%.
For STK10 (Homo sapiens, UniProt O94804): remaining activity read 93.6%.
Cyclin-dependent kinase 5, with p25 (CDK5, Homo sapiens, UniProt Q00535) — remaining activity: 96.5%.
The remaining activity was 106% (OXSR1 (Homo sapiens, UniProt O95747)).
CAMK2D (Homo sapiens, UniProt Q13557) — remaining activity: 90%.
TGFBR2 (Homo sapiens, UniProt P37173) — remaining activity: 98.8%.
The remaining activity was 89.3% (Tyrosine-protein kinase Lyn, isoform B (LYN, Homo sapiens, UniProt P07948)).
For DAPK1 (Homo sapiens, UniProt P53355): remaining activity read 97.9%.
It gave 93% for remaining activity (IKBKE (Homo sapiens, UniProt Q14164)).
It gave 103% for remaining activity (Cyclin-dependent kinase 4, with cyclin D1 (CDK4, Homo sapiens, UniProt P11802)).
For NEK2 (Homo sapiens, UniProt P51955): remaining activity read 86.9%.
MAPK9 (Homo sapiens, UniProt P45984) — remaining activity: 100%.
It gave 87.5% for remaining activity (CHEK2 (Homo sapiens, UniProt O96017)).
For GRK3 (Homo sapiens, UniProt P35626): remaining activity read 88.9%.
The remaining activity was 102% (cGMP-dependent protein kinase 1, isoform beta (PRKG1, Homo sapiens, UniProt Q13976)).
The remaining activity was 99.6% (DAPK2 (Homo sapiens, UniProt Q9UIK4)).
For IKBKB (Homo sapiens, UniProt O14920): remaining activity read 101%.
The remaining activity was 85.2% (CAMKK2 (Homo sapiens, UniProt Q96RR4)).
The remaining activity was 88.3% (STK39 (Homo sapiens, UniProt Q9UEW8)).

Block 2 — target: XBP1, bZIP domain (human); technique: DHFR protein complementation; sample: yeast; relative to: wild-type JUN-FOS pair; reading: higher = stronger binding
Setting: single substitutions, most at no-binding floor
Starting sequence: JUN, bZIP domain (human); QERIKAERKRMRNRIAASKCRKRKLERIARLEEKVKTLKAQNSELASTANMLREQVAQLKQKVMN; partner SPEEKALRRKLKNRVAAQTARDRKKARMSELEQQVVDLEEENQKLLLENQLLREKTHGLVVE
For `R30Q`, the binding fitness was -0.227 natural log.
The binding fitness of `A49G` is reported as -0.596 natural log.
For `V56T`, the binding fitness was -1.26 natural log.
`L52R` gave a binding fitness of -1.42 natural log.
`N42V` gave a binding fitness of -1.33 natural log.
For `L59R`, the binding fitness was -0.749 natural log.
The binding fitness of `L59W` is reported as -1.39 natural log.
For `E32R`, the binding fitness was -1.23 natural log.

Block 3 — technique: RNA Bind-n-Seq; form: RNA; sample: in vitro; tested at: 1 µM; setting: whole 134-nt RNA, ends assumed; added: 150 mM KCl; relative to: input library; reading: higher = stronger binding
Target: Ras GTPase-activating protein-binding protein 1, RRM domain (G3BP1, Homo sapiens, UniProt Q13283)
Chain of UniProt Q13283 (whole entry, looked up): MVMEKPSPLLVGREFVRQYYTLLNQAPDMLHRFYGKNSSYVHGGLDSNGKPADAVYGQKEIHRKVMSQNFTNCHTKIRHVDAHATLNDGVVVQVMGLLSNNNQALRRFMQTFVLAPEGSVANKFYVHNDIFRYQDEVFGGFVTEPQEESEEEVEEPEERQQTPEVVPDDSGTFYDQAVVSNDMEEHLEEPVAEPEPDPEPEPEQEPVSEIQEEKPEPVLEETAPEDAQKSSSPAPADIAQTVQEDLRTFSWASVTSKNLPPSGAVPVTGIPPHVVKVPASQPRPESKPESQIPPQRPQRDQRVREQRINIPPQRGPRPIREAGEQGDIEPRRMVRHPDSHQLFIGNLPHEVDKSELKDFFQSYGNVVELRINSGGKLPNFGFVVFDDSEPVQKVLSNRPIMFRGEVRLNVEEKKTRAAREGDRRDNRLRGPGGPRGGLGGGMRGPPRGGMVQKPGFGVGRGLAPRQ
Constant ends, left off below: GGGAGUUCUACAGUCCGACGAUC … UGGAAUUCUCGGGUGUCAAGG
`CAAGUCCUGUGCUACACAUCGUAUGUACCGAAUCGGGGCCCGGGCCCGGCCCGGGGAAAGUAUUAUGUUACGCCGUUCGGAUCUGCACUU` has a log2 enrichment of -0.982.
The log2 enrichment of `AAGUCCUGUGCUACACAUCGUAUGUACCGAAUCGGCCCCGGGGCCCCGGGCCCCGGAAAGUAUUAUGUUACGCCGUUCGGAUCUGCACUU` is reported as -0.624.
`UGCGGGACAAAGAAGUGGCCAAUCGAUACUUUACCACUGUCUGUGUGAGAUUACUGCUUGAGAGCAAAGAAAAGAAGAUCAGGGAAUUCA` gave a log2 enrichment of -0.00171.
`UGACCCUGGUGGCAUGCGGGGAGGAAGAGGUGGCCUCAUGGAUCGUGGUGGUCCCGGUGGAAUGUUCAGAGGUGGCCGUGGUGGAGACAG` gave a log2 enrichment of 0.635.
`UGGGAGGUGGAUUUUGUUUAUUUUUUUAGCUCAUUUCCAGGGGUGGGAAUUUUUUUUUAAUAUGUGUCAUGAAUAAAGUUGUUUUUGAAC` gave a log2 enrichment of 2.29.
The log2 enrichment of `UGGCCCUGGUGGCAUGCGGGGAGGAAGAGGUGGCCUCAUGCAUCGUGGUGGUCCCGGUGGAAUGUUCAGAGGUGGCCGUGGUGGAGACAG` is reported as 0.282.
The log2 enrichment of `ACCAUGCAGGUGGGCAUCUUUAAAAAGUGGGGCAAGGGGGGGAUAGGGAGGGGGGUAACACUUUGGGAACAGGUGGUCCCAGGUCGUUUC` is reported as -0.398.
With `UCCUCAAGUCCUGUGCUACACAUCGUAUGUACCGAAUCGGGUGGGUGGUGGGAAAGUAUUAUGUUACGCCGUUCGGAUCUGCACUUCCAG` the log2 enrichment was 0.263.

Block 4 — technique: competition with immobilised ligand; tested at: 1 µM
Compound: CCCCN(CCCC)C(=O)CN1C[C@H](c2cc(OC)c3c(c2)OCO3)[C@@H](C(=O)O)[C@@H]1CC(C)(C)CCC
CDK9 (Homo sapiens, UniProt P50750); cell-free assay — remaining binding: 100%.
It gave 96.1% for remaining binding (STK3 (Homo sapiens, UniProt Q13188); cell-free assay).
It gave 70.3% for remaining binding (Cyclin-dependent kinase 4, with cyclin D1 (CDK4, Homo sapiens, UniProt P11802); cell-free assay).
The remaining binding was 100% (CDK11A (Homo sapiens, UniProt Q9UQ88); binding).
The remaining binding was 95.5% (DDR1 (Homo sapiens, UniProt Q08345); cell-free assay).
It gave 38% for remaining binding (LRRK2 (Homo sapiens, UniProt Q5S007); cell-free assay).
LTK (Homo sapiens, UniProt P29376); cell-free assay — remaining binding: 100%.
The remaining binding was 100% (EPHB4 (Homo sapiens, UniProt P54760); cell-free assay).
It gave 100% for remaining binding (EPHB6 (Homo sapiens, UniProt O15197); cell-free assay).
STK4 (Homo sapiens, UniProt Q13043); cell-free assay — remaining binding: 100%.
It gave 100% for remaining binding (MAPK9 (Homo sapiens, UniProt P45984); cell-free assay).
For LYN (Homo sapiens, UniProt P07948); cell-free assay: remaining binding read 100%.
For Tyrosine-protein kinase JAK2, JH1 (JAK2, Homo sapiens, UniProt O60674); cell-free assay: remaining binding read 100%.
ULK1 (Homo sapiens, UniProt O75385); cell-free assay — remaining binding: 79.4%.
For TNK1 (Homo sapiens, UniProt Q13470); cell-free assay: remaining binding read 100%.
For NTRK1 (Homo sapiens, UniProt P04629); cell-free assay: remaining binding read 61.2%.

Some of these lines once more (block 1):
The remaining activity was 85.2% (CAMKK2 (Homo sapiens, UniProt Q96RR4)).
For TGFBR1 (Homo sapiens, UniProt P36897): remaining activity read 92.5%.
It gave 87.5% for remaining activity (CHEK2 (Homo sapiens, UniProt O96017)).
